Assay results from different studies.
Numbered parts are unrelated; each lists some results of a single study. Positions count from the first letter of the parent shown.

Study 1 — read-out: binding; method: phage display NGS; form: peptide; setting: panning round 2; relative to: input library
Target: UDP-N-acetylglucosamine--peptide N-acetylglucosaminyltransferase 110 kDa subunit (OGT, Homo sapiens, UniProt O15294)
Chain of UniProt O15294 (whole entry, looked up): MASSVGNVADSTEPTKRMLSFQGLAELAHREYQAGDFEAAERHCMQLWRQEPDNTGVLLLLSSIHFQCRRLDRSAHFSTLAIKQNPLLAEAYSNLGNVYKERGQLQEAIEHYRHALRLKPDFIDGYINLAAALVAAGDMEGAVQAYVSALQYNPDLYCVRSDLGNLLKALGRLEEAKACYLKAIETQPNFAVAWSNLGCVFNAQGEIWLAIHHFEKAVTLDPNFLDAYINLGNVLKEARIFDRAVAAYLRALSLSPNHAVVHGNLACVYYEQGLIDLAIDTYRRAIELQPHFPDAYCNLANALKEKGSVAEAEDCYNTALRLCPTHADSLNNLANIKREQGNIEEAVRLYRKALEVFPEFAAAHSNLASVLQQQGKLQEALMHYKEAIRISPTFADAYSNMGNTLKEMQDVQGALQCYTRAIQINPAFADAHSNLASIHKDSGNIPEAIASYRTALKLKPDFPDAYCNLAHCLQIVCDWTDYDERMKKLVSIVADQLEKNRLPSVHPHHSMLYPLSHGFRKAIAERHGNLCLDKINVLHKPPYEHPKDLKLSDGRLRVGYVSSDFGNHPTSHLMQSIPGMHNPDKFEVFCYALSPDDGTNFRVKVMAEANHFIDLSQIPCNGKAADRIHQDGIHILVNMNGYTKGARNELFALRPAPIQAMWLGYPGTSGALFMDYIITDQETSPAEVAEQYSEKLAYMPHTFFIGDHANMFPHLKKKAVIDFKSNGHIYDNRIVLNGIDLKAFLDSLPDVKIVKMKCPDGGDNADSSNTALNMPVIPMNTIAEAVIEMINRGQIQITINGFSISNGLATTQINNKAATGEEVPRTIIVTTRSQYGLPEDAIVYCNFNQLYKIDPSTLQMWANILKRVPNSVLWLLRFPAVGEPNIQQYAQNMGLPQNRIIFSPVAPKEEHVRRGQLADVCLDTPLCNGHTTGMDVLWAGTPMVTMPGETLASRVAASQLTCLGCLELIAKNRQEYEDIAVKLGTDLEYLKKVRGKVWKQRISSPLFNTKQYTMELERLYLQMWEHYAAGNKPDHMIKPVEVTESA
Molecule | minimum log2 enrichment ratio
HWPYHHALDQPQRQD | 2.22
TWLDHFPWHTYHPRD | 3.64
IPNYIHMTHYHQHAH | 2.8
TTHYLPVYQIELKNA | 3.32
EWLPMYQIQYVMYAT | 2.73
SIGHEQGYTYYHTHH | 1.81
HWVGTTHHSTMHNHD | 2.84
EEVPSQYAPYYEITY | 1.71

Study 2 — target: inorganic phosphate, free oxyanion; method: microfluidic competitive inhibition; matrix: in vitro, cell-free expressed; concentration: not given; direction: lower = stronger binding
Setting: derived from inhibition constants, unchanged parent 615000 nM
Starting sequence: PafA, mature enzyme, eGFP fusion (Elizabethkingia meningoseptica, UniProt Q9KJX5); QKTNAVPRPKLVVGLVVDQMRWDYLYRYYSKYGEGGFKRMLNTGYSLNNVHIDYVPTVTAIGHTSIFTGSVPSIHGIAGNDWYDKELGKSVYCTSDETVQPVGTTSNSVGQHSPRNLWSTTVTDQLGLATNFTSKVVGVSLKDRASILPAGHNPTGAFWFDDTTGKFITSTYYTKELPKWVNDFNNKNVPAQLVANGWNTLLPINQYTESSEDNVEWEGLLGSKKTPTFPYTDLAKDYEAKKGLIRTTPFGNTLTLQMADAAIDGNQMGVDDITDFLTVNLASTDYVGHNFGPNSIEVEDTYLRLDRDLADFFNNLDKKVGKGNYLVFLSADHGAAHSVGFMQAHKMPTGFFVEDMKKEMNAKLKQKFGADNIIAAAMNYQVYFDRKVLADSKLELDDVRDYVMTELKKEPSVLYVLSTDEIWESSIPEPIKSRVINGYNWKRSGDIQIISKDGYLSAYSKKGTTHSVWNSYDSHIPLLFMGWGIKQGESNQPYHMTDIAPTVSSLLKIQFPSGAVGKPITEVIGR
Variant | phosphate dissociation constant
A335V | 529 µM
G334A | 595 µM
A5V | 664 µM
D264V | 655 µM
A235G | 520 µM
H75V | 384 µM
V13A | 598 µM
D391V | 634 µM

Study 3 — target: CCNB1, cyclin fold, Cln2 fusion (human); method: yeast growth competition, sequencing; matrix: yeast; setting: strong parent motif; relative to: not given; direction: higher = stronger binding
Starting sequence: viral docking peptide; YKVKRRLVFGADD; partner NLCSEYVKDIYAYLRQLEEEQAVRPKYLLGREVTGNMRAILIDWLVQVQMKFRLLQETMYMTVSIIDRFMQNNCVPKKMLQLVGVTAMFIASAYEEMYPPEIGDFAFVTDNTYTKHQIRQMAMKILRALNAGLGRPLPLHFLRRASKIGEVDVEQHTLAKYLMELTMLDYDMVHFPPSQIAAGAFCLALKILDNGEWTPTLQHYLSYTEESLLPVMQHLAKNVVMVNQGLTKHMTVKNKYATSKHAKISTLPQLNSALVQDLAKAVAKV
Variant | normalised enrichment score
V8I | 4.01
V3I | 2.89
K2R | 3.88
K4M | 1.43
V8Q | 3.14
G10R | 2.53
R6M | 2.74
G10P | 4.63

Further values, each from its own experiment
Compound | read-out | method | matrix | concentration | endpoint | result
COC(=O)C1=C(C)NC(C)=C(C(=O)OC)C1c1ccccc1[N+](=O)[O-] | dsDNA unwinding | PicoGreen fluorescence | annealed dsDNA substrate | 20 µM | effect | 2.66%

A few entries again (study 3):
Variant | normalised enrichment score
G10R | 2.53
G10P | 4.63
K4M | 1.43
